Published values of several laboratories.
Parts stem from different laboratories: compare values within a part only.

Block 1 — method: protein-binding microarray; form: double-stranded DNA, one strand shown; medium: in vitro; concentration: 2200 nM top; setting: 60-bp whole probe; together with: salmon DNA 0.4 mg/ml; reference: random background probes; direction: higher = stronger binding; endpoint: fitted relative affinity
Target: Interferon regulatory factor 7, full length, phosphomimetic (IRF7, Homo sapiens, UniProt Q92985, residues 1-503, S471D/S472D/S475D/S476D/S477D/S483D/S484D/S487D)
Shared flanks, not repeated: GCCTAGCAC … GTGCTAGGTCTTGATTCGCTTGACGCTGCTG
Target sequence (chain): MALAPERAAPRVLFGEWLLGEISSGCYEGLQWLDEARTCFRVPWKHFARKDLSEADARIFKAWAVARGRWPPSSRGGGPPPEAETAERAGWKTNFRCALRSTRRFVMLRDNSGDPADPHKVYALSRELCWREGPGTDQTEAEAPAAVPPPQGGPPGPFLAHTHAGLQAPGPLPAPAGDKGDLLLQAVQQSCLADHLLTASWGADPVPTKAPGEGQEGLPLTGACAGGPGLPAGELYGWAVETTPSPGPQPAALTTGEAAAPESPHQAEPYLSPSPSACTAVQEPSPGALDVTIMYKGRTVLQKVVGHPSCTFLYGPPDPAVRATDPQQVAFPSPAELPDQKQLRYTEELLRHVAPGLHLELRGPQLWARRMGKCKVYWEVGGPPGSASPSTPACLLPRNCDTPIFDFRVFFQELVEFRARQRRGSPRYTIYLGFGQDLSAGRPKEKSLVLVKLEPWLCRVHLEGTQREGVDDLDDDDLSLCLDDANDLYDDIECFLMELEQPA
GACGATCTCAGTTTCGGGAC: 4.32 z-score
CTTTCCTTTGCTTTCTCCCA: 3.56 z-score
TTAGATCTCTGACTGGATTA: -0.094 z-score
ACTAATTTTCAATTCCTGAA: 1.77 z-score
TCACATTTCCAATTACCACT: 2.82 z-score

Block 2 — method: RNA Bind-n-Seq; form: RNA; medium: in vitro; concentration: 1 µM; setting: whole 134-nt RNA, ends assumed; together with: 150 mM KCl; reference: input library; direction: higher = stronger binding; endpoint: log2 enrichment
Target: Ras GTPase-activating protein-binding protein 1, RRM domain (G3BP1, Homo sapiens, UniProt Q13283)
Sequence of UniProt Q13283 (whole entry, looked up): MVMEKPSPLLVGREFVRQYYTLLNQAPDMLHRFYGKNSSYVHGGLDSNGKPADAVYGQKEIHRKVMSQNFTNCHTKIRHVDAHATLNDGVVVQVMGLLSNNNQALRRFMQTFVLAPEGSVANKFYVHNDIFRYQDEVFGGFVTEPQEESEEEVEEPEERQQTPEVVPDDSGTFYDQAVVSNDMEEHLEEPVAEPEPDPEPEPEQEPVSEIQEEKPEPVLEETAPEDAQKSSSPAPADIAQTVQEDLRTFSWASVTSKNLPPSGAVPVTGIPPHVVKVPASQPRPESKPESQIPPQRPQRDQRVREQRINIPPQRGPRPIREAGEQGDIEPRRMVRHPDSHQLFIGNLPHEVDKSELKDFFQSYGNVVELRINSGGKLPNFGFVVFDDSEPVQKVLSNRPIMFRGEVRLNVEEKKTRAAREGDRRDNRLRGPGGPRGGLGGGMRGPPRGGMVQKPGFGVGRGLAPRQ
GGGAGUUCUACAGUCCGACGAUCCAAGUCCUGUGCUACACAUCGUAUGUACCGAAUCGGGUGGGUGGGUUUUUUUGGGAAAGUAUUAUGUUACGCCGUUCGGAUCUGCACUUCUGGAAUUCUCGGGUGUCAAGG: 0.71
GGGAGUUCUACAGUCCGACGAUCAGUCCUGUGCUACACAUCGUAUGUACCGAAUCGGUUUUUGGUUUUUGGGUUUUUGGGAAAGUAUUAUGUUACGCCGUUCGGAUCUGCACUUGGAAUUCUCGGGUGUCAAGG: -0.0705
GGGAGUUCUACAGUCCGACGAUCUGGCCCUGGUGGCAUGCGGGUAGGAAGAGGUGGCCUCAUGGAUCGUGGUGGUCCCGGUGGAAUGUUCAGAGGUGGCCGUGGUGGAGACAGUGGAAUUCUCGGGUGUCAAGG: 1.03

Block 3 — method: universal PBM; form: double-stranded DNA, one strand shown; medium: in vitro; concentration: 600 nM; direction: higher = stronger binding; endpoint: E-score
Target: Sal-like protein 4, full length isoform A (SALL4, Homo sapiens, UniProt Q9UJQ4, residues 1-1053)
Sequence of UniProt Q9UJQ4 (whole entry, looked up): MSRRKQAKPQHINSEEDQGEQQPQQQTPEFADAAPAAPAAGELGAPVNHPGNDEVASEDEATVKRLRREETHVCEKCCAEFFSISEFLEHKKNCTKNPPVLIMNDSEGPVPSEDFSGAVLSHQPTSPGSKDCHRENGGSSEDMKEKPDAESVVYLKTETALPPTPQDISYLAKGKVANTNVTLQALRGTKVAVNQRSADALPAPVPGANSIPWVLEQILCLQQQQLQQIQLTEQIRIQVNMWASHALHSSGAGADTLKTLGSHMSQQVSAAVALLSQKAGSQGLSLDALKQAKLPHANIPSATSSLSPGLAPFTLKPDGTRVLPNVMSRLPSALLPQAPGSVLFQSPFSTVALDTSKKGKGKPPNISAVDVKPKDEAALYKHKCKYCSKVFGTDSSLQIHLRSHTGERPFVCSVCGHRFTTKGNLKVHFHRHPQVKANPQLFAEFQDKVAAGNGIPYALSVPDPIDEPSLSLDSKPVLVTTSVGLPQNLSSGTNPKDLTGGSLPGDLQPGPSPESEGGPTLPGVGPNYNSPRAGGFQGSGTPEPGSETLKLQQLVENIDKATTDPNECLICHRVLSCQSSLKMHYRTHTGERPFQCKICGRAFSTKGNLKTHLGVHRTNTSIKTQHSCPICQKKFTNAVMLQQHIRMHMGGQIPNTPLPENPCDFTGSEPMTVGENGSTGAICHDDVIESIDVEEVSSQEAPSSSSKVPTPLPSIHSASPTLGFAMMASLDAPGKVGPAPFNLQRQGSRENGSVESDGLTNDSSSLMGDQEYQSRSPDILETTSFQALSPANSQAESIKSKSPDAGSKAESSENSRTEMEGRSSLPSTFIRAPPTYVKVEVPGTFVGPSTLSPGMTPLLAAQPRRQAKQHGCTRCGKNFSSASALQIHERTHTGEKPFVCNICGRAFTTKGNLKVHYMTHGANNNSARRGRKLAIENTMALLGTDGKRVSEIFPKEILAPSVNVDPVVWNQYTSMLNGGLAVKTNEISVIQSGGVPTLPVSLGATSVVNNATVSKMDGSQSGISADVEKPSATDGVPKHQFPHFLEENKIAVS
Setting: 8-mer, flanks averaged, mean of replicates
CTATTGCC: 0.0291
AAAGAGGG: -0.0445
ATCGAATG: 0.194
CAGTTTCA: 0.0298

Further values, each from its own experiment
PhoQ, residues 284 288 289 292 302 303 SASVAL — fold induction (PhoP, residues 12 14 15 18 19 NYFRM (Escherichia coli, UniProt P23836); Sort-seq, refers to: YFP reporter; E. coli; PhoQ-PhoP variant library, together with: 10 µM Mg2+; reference: high Mg2+ state, higher = stronger signaling): 1.9

Excerpt of the above (block 2):
GGGAGUUCUACAGUCCGACGAUCCAAGUCCUGUGCUACACAUCGUAUGUACCGAAUCGGGUGGGUGGGUUUUUUUGGGAAAGUAUUAUGUUACGCCGUUCGGAUCUGCACUUCUGGAAUUCUCGGGUGUCAAGG: 0.71
GGGAGUUCUACAGUCCGACGAUCAGUCCUGUGCUACACAUCGUAUGUACCGAAUCGGUUUUUGGUUUUUGGGUUUUUGGGAAAGUAUUAUGUUACGCCGUUCGGAUCUGCACUUGGAAUUCUCGGGUGUCAAGG: -0.0705
